Experimental data gathered from unrelated publications.
Lines come from different studies, so protocols differ.
PIP4K2C: Phosphatidylinositol 5-phosphate 4-kinase type-2 gamma (PIP4K2C, Homo sapiens, UniProt Q8TBX8)
Sequence of UniProt Q8TBX8 (whole entry, looked up): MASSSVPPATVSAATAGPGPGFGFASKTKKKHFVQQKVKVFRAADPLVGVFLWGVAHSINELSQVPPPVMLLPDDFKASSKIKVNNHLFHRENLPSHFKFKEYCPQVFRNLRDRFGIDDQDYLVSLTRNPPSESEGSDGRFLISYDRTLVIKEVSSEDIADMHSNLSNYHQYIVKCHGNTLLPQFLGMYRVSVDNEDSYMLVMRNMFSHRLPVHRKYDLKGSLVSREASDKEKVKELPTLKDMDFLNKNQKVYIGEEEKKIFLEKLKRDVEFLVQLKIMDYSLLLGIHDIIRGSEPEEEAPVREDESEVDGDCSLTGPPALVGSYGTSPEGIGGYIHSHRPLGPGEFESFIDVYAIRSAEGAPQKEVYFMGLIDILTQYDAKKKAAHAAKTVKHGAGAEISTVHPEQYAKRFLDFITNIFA
GBA2: Beta-glucosidase (GBA2, Homo sapiens, UniProt Q9HCG7)
Sequence of UniProt Q9HCG7 (whole entry, looked up): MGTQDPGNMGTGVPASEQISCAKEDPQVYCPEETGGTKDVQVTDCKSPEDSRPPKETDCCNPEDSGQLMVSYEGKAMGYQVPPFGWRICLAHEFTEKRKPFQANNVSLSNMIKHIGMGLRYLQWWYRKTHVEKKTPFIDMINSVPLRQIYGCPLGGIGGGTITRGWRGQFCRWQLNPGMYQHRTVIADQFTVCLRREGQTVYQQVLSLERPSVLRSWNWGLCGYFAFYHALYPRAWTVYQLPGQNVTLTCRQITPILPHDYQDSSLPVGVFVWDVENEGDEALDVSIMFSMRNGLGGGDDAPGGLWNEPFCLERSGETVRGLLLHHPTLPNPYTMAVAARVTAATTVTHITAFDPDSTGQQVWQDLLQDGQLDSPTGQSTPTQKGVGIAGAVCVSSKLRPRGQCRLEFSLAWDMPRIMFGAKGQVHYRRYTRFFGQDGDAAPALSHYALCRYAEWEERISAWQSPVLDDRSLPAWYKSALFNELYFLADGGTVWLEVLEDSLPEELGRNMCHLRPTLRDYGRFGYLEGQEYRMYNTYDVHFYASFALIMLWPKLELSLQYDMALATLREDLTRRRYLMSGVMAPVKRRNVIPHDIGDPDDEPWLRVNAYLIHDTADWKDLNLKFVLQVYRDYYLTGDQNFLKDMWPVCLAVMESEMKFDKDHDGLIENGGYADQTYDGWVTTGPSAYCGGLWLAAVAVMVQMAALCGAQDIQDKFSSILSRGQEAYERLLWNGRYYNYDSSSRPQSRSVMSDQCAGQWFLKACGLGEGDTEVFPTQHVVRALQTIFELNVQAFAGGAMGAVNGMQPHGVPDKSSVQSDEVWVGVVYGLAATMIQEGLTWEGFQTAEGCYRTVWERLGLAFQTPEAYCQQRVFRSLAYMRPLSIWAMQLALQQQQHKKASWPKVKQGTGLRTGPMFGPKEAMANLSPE
Sequence of UniProt P48736 (whole entry, looked up): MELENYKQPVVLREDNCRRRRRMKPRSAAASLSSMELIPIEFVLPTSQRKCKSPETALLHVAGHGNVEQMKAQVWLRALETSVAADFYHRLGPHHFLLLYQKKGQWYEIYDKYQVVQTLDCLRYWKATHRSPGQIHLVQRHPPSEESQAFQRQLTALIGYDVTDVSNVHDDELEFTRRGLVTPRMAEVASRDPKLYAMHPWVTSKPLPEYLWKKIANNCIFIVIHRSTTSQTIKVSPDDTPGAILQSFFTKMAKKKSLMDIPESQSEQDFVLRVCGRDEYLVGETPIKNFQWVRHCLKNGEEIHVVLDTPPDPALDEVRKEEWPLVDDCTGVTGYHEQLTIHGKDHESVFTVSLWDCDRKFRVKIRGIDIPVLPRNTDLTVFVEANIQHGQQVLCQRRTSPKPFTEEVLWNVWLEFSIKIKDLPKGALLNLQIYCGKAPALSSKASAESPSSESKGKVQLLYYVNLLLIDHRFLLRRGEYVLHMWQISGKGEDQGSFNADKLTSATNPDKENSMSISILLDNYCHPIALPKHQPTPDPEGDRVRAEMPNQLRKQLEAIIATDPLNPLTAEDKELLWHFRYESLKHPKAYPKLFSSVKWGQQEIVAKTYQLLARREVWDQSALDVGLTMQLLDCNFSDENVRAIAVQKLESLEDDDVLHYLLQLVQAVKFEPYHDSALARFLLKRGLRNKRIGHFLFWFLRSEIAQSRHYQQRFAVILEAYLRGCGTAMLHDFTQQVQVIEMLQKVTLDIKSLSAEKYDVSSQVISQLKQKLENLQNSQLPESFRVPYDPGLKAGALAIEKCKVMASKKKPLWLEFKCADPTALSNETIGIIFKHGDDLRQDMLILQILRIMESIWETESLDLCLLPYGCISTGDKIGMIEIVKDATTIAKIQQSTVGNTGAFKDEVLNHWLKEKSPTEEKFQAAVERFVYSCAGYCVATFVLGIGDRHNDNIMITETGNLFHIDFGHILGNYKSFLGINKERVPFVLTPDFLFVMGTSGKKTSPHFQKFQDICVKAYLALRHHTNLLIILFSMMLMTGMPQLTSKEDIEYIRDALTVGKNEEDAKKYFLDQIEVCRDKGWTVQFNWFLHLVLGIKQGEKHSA
Sequence of UniProt P19525 (whole entry, looked up): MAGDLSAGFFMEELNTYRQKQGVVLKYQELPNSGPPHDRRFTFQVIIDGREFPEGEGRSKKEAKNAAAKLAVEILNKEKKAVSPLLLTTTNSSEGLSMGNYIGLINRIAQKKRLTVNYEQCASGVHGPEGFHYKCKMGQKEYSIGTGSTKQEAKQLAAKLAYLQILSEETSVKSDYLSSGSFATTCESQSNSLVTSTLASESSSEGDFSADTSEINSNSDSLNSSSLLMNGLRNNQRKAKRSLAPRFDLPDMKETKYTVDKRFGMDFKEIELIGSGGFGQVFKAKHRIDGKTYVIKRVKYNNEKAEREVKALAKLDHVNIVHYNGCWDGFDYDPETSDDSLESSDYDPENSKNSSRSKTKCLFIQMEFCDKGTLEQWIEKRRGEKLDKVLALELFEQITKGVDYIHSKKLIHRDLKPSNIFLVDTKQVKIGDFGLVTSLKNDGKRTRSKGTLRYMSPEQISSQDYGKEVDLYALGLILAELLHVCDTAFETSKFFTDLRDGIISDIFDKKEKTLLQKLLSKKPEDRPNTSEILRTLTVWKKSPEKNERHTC
Sequence of UniProt Q9UIF9 (whole entry, looked up): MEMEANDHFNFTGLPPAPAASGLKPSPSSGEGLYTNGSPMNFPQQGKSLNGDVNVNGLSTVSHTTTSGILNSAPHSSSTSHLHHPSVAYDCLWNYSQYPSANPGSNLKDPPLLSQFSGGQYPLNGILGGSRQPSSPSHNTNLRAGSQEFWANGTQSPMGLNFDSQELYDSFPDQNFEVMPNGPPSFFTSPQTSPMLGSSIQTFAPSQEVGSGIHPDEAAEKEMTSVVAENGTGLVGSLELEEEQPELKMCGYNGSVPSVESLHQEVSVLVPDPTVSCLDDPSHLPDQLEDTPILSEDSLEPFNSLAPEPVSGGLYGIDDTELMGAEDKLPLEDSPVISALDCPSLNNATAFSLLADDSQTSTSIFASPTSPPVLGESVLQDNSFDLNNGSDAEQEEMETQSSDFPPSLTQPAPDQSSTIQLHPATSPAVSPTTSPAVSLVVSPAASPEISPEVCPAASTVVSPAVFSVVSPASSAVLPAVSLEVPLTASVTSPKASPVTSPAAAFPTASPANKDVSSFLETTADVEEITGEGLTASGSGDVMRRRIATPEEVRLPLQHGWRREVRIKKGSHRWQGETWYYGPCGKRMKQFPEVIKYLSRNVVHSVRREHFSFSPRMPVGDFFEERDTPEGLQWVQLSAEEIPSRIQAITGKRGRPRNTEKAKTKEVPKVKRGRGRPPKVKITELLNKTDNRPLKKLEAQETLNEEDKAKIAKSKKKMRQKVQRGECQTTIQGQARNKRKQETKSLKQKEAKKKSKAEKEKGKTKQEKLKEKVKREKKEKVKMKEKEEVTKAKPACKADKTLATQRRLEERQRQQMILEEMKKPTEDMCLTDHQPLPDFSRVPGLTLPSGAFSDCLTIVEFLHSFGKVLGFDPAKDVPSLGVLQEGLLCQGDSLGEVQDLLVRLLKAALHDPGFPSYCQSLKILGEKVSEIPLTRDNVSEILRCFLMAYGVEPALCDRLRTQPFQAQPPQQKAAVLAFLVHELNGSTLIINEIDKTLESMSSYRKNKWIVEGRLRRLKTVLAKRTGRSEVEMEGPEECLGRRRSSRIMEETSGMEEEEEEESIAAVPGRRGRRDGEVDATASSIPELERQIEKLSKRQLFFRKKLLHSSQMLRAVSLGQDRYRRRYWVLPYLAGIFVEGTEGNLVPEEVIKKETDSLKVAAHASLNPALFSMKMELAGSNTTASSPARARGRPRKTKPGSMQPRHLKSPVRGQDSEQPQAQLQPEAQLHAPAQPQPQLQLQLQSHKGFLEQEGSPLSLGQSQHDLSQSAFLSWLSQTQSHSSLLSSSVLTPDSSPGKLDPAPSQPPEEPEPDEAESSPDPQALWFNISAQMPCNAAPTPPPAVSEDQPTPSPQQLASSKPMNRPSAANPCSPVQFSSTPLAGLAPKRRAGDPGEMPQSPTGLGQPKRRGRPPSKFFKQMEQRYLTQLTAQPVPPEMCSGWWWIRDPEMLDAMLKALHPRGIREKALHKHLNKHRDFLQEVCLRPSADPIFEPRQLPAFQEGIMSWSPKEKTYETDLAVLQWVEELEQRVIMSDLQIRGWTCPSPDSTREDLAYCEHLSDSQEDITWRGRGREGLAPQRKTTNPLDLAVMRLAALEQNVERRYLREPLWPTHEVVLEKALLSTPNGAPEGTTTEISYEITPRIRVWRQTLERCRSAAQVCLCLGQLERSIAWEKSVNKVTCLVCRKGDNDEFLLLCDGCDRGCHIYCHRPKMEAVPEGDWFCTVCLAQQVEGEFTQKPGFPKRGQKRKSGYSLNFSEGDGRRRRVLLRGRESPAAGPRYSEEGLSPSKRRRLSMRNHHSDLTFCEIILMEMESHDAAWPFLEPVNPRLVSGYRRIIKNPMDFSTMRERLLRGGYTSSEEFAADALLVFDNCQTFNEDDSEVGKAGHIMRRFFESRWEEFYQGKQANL

For `Nc1ncc2c(n1)-c1c([nH]c3ccc(-c4ccc(F)cc4)cc13)CCC2`, the remaining binding was 15% (PIP4K2C; binding, competition with immobilised ligand; 1 µM).
With `C=CC(=O)Nc1cccc(Cn2ncc3cnc(Nc4cnn(CCOC)c4)nc32)c1` the binding was 90% (human S6K1; KINOMEscan; 100 nM; relative to: control).
For `COC1CN([C@H]2CC[C@H]([C@@]3(C)Oc4c(Cl)cc(C(=O)NCc5c(SC)cc(C)[nH]c5=O)c(C)c4O3)CC2)C1`, “log2 fold change” read 1.01 (RNA-seq, item: PDCD1LG2; human, whole blood; dose not given, 24 h; relative to: pretreatment baseline).
`Nc1ncc2c(n1)-c1c([nH]c3ccc(-c4ccc(F)cc4)cc13)CC2` has a remaining binding of 0.4% (PIP4K2C; binding, competition with immobilised ligand; 1 µM).
With `CC(=O)c1cnc(N)nc1N1CC[C@H]1c1nn2ccc(Cl)c2c(=O)n1-c1ccccc1` the remaining binding was 0% (PIK3CG (Homo sapiens, UniProt P48736); binding, competition with immobilised ligand; 10 µM).
For `Cn1cc(-c2cc(N3CCCCS3(=O)=O)ccc2N[C@H]2CC[C@H](C)CC2)c2cc[nH]c2c1=O` (stereo in doubt), the remaining binding was 100% (Bromodomain adjacent to zinc finger domain protein 2A, bromodomain (BAZ2A, Homo sapiens, UniProt Q9UIF9); binding, competition with immobilised ligand; 1 µM).
The remaining binding of `Cc1cnc2nc1Nc1cccc(c1)COC/C=C/COCc1cc(ccc1OCCN1CCOCC1)N2` is reported as 91% (EGFR (Homo sapiens, UniProt P00533, G719C); binding; 0.1 µM).
With `OC[C@@H]1[C@@H](O)[C@H](O)[C@@H](O)CN1CCCCCOCc1ccccc1-c1ccccc1` the selectivity ratio was 17 (GBA2; inhibitor, 4MU-β-D-glucopyranoside; HEK293T homogenates overexpressing GBA2; relative to: GCS IC50 over GBA2 IC50).
`C=CC(=O)N1CCCC(n2c(=O)c3ncccc3n(Cc3ccc(Oc4ccccc4)cc3)c2=O)C1` (centres unmarked) gave a remaining binding of 96% (Tyrosine-protein kinase ABL1, phosphorylated (ABL1, Homo sapiens, UniProt P00519, E255K); binding, competition with immobilised ligand; 1 µM).
For `Cc1cc(NC(=O)[C@H](O)c2cc(F)cc(F)c2)ccc1-c1cnc(N)c(C(=O)NC(C)C)c1`, the remaining binding was 100% (EIF2AK2 (Homo sapiens, UniProt P19525); binding, competition with immobilised ligand; 10 µM).
`CC(=O)N1c2ccc(-c3ccc(CNC(=O)c4cn5cc(-c6cnc(N)nc6)nc(N6CCOCC6)c5n4)cc3)cc2CC[C@@H]1C` has a remaining binding of 91% (ATAD2 (Homo sapiens, UniProt Q6PL18); binding, competition with immobilised ligand; 10 µM).
The remaining binding of `CNC1C[S+]2CC[S+]3CC[S+](C1)[Ru-4]321([N]=C=S)[n]2c3ccc(OC)cc3c3c4c(c5cc(F)c[n+]1c5c32)C(=O)NC4=O` (centres unmarked) is reported as 97% (Tyrosine-protein kinase ABL1, non-phosphorylated (ABL1, Homo sapiens, UniProt P00519, T315I); KinomeScan; 0.1 µM; relative to: untreated).
For `CC(C)C(O)C#Cc1ccc2[nH]c3c(c2c1)-c1nc(N)ncc1CC3` (centres unmarked), the remaining binding was 1.9% (PIP4K2C; binding, competition with immobilised ligand; 1 µM).
With `OC[C@@H]1[C@@H](O)[C@H](O)[C@@H](O)CN1CCCCCOCc1ccc(-c2cncnc2)cc1` the selectivity ratio was 80 (GBA2; inhibitor, 4MU-β-D-glucopyranoside; HEK293T homogenates overexpressing GBA2; relative to: GCS IC50 over GBA2 IC50).
